# Measurements collected from several papers.
# Every numbered part comes from another study and shows a few of its results, in no order. Numbers after ± are the reported error.
# Chain of UniProt P55201 (whole entry, looked up): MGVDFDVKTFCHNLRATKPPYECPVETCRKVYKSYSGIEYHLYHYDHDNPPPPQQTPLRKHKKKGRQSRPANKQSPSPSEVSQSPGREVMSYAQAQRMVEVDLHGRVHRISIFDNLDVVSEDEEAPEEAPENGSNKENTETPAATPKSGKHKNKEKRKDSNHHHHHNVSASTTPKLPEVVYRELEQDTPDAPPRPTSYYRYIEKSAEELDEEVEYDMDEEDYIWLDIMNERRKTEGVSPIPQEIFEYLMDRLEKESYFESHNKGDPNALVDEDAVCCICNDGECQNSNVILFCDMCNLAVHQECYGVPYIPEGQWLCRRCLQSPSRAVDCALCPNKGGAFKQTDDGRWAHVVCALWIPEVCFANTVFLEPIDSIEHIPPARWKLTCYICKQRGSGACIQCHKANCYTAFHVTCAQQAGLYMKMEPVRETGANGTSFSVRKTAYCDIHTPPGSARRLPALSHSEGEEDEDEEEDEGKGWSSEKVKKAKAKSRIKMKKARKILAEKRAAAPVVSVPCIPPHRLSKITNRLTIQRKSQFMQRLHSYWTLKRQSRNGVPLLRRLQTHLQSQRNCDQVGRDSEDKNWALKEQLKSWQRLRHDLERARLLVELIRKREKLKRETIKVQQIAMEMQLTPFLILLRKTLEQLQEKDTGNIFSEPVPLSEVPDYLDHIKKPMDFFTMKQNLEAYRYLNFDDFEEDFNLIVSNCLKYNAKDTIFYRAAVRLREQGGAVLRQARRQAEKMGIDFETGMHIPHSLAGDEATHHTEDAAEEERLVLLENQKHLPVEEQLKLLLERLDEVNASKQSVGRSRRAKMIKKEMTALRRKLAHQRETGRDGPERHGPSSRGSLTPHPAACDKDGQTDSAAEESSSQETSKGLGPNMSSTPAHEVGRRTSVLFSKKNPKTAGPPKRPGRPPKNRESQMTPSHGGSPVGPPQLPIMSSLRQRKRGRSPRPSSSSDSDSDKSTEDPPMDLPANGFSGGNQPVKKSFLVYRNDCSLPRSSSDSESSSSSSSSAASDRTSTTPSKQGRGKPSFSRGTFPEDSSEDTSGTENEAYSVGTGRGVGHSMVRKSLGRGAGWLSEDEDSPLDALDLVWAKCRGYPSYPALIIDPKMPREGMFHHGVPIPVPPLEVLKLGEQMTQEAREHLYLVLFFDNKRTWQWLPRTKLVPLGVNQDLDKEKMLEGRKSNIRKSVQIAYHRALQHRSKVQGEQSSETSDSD
# Chain of UniProt O15164 (whole entry, looked up): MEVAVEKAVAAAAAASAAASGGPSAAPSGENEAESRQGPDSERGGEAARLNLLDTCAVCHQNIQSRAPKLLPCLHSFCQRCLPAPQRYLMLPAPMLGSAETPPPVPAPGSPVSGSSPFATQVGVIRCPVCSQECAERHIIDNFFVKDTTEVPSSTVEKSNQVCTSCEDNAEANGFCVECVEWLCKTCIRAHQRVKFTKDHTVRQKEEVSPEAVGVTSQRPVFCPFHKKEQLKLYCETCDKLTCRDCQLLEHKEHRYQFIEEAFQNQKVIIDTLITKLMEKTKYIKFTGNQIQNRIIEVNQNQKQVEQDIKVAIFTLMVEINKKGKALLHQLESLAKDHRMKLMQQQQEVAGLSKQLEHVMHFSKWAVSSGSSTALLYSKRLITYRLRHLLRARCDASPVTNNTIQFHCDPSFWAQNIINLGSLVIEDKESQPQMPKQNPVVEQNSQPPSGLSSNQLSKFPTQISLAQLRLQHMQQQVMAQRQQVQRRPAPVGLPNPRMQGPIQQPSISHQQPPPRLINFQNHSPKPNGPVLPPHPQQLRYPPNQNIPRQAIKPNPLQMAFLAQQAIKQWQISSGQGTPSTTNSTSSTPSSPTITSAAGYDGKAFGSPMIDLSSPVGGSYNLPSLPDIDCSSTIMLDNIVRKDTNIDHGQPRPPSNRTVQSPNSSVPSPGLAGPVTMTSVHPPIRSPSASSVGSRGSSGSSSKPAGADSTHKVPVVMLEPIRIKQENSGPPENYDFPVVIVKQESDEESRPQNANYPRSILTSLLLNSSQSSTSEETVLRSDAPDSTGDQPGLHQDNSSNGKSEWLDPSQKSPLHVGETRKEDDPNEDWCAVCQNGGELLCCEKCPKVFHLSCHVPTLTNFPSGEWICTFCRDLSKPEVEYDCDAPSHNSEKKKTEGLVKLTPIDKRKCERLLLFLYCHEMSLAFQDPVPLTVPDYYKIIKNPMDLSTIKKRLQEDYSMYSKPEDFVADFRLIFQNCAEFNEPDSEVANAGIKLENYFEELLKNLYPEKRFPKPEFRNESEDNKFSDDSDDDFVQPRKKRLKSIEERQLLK
# Chain of UniProt P57059 (whole entry, looked up): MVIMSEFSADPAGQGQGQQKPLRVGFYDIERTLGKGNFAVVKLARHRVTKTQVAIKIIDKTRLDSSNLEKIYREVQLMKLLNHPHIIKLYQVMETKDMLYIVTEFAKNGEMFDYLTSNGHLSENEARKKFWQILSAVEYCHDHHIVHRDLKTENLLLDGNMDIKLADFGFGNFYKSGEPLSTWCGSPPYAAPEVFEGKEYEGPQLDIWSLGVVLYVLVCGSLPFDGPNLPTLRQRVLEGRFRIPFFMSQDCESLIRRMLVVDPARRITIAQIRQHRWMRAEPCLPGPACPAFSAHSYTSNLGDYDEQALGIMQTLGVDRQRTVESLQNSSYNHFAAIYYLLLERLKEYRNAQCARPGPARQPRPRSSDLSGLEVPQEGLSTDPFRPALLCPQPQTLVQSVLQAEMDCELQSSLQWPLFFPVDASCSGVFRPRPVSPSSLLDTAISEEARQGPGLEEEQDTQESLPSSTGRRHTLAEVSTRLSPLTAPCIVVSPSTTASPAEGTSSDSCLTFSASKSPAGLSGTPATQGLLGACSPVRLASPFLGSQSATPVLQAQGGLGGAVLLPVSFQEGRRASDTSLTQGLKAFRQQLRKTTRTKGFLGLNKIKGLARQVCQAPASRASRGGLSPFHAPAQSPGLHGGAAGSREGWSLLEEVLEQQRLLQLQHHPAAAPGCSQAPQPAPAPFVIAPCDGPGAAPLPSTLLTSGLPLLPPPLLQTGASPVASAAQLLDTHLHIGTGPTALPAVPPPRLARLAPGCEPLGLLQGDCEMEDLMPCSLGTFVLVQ
# Chain of UniProt Q9H930 (whole entry, looked up): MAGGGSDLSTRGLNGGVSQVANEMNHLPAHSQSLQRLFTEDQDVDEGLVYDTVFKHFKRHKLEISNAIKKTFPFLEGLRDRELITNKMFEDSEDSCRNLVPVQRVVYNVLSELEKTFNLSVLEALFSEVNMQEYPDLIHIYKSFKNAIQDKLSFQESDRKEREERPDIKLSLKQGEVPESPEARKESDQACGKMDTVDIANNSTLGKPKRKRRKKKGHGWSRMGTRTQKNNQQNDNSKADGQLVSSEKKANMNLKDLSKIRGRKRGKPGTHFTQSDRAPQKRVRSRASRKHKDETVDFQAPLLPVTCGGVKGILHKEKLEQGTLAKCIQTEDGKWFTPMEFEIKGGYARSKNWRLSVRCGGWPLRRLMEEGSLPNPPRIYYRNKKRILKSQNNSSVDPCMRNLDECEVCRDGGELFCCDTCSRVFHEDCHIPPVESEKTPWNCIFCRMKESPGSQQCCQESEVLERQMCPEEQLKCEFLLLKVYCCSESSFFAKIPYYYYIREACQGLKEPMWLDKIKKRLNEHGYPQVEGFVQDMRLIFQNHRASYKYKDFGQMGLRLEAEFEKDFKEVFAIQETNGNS

# Sample 1
# SMILES: Cc1cnc(Nc2ccc(OCCN3CCCC3)cc2)nc1Nc1cccc(S(=O)(=O)NC(C)(C)C)c1
# Observed: binding
# Method: thermal shift
# Tested at: 10 µM
# Direction: higher = stronger binding
target,delta Tm [°C]
"Protein polybromo-1, BD4 (PBRM1, Homo sapiens, UniProt Q86U86)",-0.06 ± 0.26
"SP140L, PHD-bromodomain (Homo sapiens, UniProt Q9H930)",0.03 ± 0.13
"Transcription intermediary factor 1-alpha, PHD-bromodomain (TRIM24, Homo sapiens, UniProt O15164)",0.01 ± 0.14
"Bromodomain and PHD finger-containing protein 3 (BRPF3, Homo sapiens, UniProt Q9ULD4)",-0.01 ± 0.07
"Peregrin, isoform A (BRPF1, Homo sapiens, UniProt P55201)",0

# Sample 2
# Target: Beta-1 adrenergic receptor (ADRB1, Homo sapiens, UniProt P08588)
# Chain of UniProt P08588 (whole entry, looked up): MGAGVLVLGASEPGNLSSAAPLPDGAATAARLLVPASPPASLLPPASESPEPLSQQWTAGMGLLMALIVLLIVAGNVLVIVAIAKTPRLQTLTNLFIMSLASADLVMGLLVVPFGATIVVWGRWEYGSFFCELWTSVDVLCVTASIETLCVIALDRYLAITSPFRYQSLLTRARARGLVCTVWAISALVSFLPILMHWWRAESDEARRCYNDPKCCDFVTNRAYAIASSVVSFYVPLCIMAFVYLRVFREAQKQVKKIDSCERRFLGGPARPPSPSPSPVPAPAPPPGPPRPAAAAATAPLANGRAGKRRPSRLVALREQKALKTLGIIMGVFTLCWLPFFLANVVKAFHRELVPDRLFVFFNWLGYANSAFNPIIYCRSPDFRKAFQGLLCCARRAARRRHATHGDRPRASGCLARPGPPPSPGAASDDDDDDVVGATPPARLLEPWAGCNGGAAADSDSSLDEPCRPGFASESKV
# Mode: antagonist
Compound,IC50
Cc1cccc(OCC(O)CNC(C)C)c1 (stereo not drawn),≥ 100 µM
CN(C)c1ccc(CN2CCNc3cc(Nc4cccnc4)ncc3C2)cc1,≥ 100 µM
COc1ccccc1N1CCN([C@@H]2[C@H](O)[C@H](CO)O[C@@H]2CN[S+](C)(=O)[O-])CC1,≥ 100 µM
O=C(c1cc(-c2ccc(F)cc2)nc2ccccc12)N1CCCC(c2nc(C3CCOCC3)no2)C1 (stereo not drawn),≥ 100 µM
COc1ccccc1N1CCN(CC[C@@H]2CC[C@H](O)[C@@H](C(=O)NC(C)C)O2)CC1,≥ 100 µM
COc1cc([S+](=O)([O-])N2CCN(c3ccccc3OC)CC2)c(C)cc1C,≥ 100 µM
CNc1nc(-c2cccc3ccccc23)ccc1C#N,≥ 100 µM

# Sample 3
# Target: Serine/threonine-protein kinase SIK2 (SIK2, Homo sapiens, UniProt Q9H0K1)
# Chain of UniProt Q9H0K1 (whole entry, looked up): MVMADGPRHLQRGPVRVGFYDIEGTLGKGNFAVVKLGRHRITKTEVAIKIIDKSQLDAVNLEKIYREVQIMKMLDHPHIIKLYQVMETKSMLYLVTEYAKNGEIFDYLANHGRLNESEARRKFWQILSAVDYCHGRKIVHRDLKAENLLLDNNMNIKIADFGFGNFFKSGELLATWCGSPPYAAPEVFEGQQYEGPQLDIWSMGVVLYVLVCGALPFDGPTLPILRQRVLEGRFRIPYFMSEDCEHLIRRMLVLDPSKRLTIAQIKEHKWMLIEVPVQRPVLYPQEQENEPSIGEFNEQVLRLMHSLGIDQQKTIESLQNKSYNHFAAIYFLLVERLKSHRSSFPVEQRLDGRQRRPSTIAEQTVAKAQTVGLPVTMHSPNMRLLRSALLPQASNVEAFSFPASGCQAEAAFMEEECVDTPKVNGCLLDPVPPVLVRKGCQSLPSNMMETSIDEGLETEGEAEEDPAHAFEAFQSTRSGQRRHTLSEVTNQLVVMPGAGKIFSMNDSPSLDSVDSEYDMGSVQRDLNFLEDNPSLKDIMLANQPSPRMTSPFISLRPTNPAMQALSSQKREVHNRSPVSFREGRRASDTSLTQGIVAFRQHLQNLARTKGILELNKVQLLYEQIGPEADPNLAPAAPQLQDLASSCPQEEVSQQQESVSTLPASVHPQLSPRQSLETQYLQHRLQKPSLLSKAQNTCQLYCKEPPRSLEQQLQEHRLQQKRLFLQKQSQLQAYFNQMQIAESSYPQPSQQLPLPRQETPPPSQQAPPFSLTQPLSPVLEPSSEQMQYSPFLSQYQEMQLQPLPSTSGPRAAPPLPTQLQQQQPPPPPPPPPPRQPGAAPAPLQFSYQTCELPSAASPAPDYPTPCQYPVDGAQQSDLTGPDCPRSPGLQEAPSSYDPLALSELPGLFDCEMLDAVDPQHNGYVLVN
# Observed: enzyme activity
# Mode: inhibitor
# Tested at: 0.5 µM
# Reference: control
Compound,remaining activity [%]
C#Cc1cccc(Nc2ncnc3cc(OCCOC)c(OCCOC)cc23)c1,86.4
Nc1ccc2ncnc(NCCc3ccc(Oc4ccccc4)cc3)c2c1,97.4
COc1ccc(CNC(=O)Nc2ncc([N+](=O)[O-])s2)cc1,89.4
COc1ccc(OC)c2c(=S)c3ccccc3[nH]c12,114
OCC(O)CCON=C1C(c2c(O)[nH]c3ccccc23)=Nc2ccccc21 (stereo not drawn),75.1
Cn1c2ccccc2c2c3c(c4c5ccccc5n(CCC#N)c4c21)CNC3=O,54.5
COc1cc2ncnc(Nc3ccc(Oc4ccccc4)cc3)c2cc1OC,97.7
Cc1ccc(NC(=O)c2ccc(CN3CCN(C)CC3)cc2)cc1Nc1nc(-c2cccnc2)cs1,99.7
Cc1nc(-c2ccccc2)c(-c2ccncc2)o1,86.2
Cc1cccc(-c2[nH]c(C(C)(C)C)nc2-c2ccc3c(c2)OCO3)n1,91.4
O=C(O)c1ccc2c3c1cccc3c(=O)n1c3ccccc3nc21,92.8
CCOC(=O)c1c(C)[nH]c(/C=C2\C(=O)Nc3ccccc32)c1C,99.9
N#CC(C#N)=C(N)/C(C#N)=C/c1ccc(O)cc1,87.7
CN(C)c1ccc(C=C2C(=O)Nc3ccccc32)cc1,101
Nc1[nH]nc2nc3ccccc3nc12,102
O=c1c2ccccc2[nH]c(=S)n1CCN1CCC(=C(c2ccc(F)cc2)c2ccc(F)cc2)CC1,89.7

# Sample 4
# Compound: CN(C)CC#Cc1ccc(OCCCc2sc(N3CCc4cccc(C(=O)Nc5nc6ccccc6s5)c4C3)nc2C(=O)O)c(F)c1
# Tested at: 1 µM
target,assay,remaining binding [%]
"Serine/threonine-protein kinase SIK1 (SIK1, Homo sapiens, UniProt P57059)",competition binding,100
"Serine/threonine-protein kinase PAK 1 (PAK1, Homo sapiens, UniProt Q13153)","cell-free assay, competition with immobilised ligand",98
"Ribosomal protein S6 kinase alpha-3, C-terminal kinase domain (RPS6KA3, Homo sapiens, UniProt P51812)","cell-free assay, competition with immobilised ligand",100
"Cyclin-G-associated kinase (GAK, Homo sapiens, UniProt O14976)","cell-free assay, competition with immobilised ligand",100
"Myosin-IIIa (MYO3A, Homo sapiens, UniProt Q8NEV4)","binding, competition with immobilised ligand",100
"Homeodomain-interacting protein kinase 3 (HIPK3, Homo sapiens, UniProt Q9H422)","cell-free assay, competition with immobilised ligand",87
"ALK tyrosine kinase receptor (ALK, Homo sapiens, UniProt Q9UM73, C1156Y)","cell-free assay, competition with immobilised ligand",100
"Serine/threonine-protein kinase N2 (PKN2, Homo sapiens, UniProt Q16513)","cell-free assay, competition with immobilised ligand",100

# A few entries again (sample 3):
Compound,remaining activity [%]
O=c1c2ccccc2[nH]c(=S)n1CCN1CCC(=C(c2ccc(F)cc2)c2ccc(F)cc2)CC1,89.7
O=C(O)c1ccc2c3c1cccc3c(=O)n1c3ccccc3nc21,92.8
OCC(O)CCON=C1C(c2c(O)[nH]c3ccccc23)=Nc2ccccc21 (stereo not drawn),75.1
